Experimental data gathered from unrelated publications.
Compare with care: the assays were run in different laboratories.
Target: TGF-beta receptor type-2 (TGFBR2, Homo sapiens, UniProt P37173)

SMILES	assay	system	conditions	scale	endpoint	value
CC(C)=CC1OC(C)(C)C2C=C3C(=O)C(Cl)=CC(O)C3C3C(O)C4OC4C(=O)C132 (stereo not shown)	cell-free assay, competition with immobilised ligand		10 µM		remaining binding	100%
CCN1CCN(Cc2ccc(NC(=O)c3ccc(C)c(NC(=O)c4cncc(-c5cccs5)c4)c3)cc2C(F)(F)F)CC1	binding, competition with immobilised ligand		1 µM		remaining binding	25%
C=CC(=O)Nc1cc(-c2nn(C3CCN(CCNC(=O)[C@H](C)CCC45CC6CC(CC(C6)C4)C5)CC3)c3ncnc(N)c23)ccc1Oc1ccccc1	inhibitor, KiNativ profiling	biochemical	2 µM		inhibition	8.8%
Cc1cnc2nc1Nc1cccc(c1)COC/C=C/COCc1cc(ccc1OCCN1CCOCC1)N2	binding, competition with immobilised ligand		0.1 µM		remaining binding	100%
C=CC(=O)N1CCc2ccc(-n3c(=O)ccc4cnc5ccc(-c6cnn(C)c6)cc5c43)cc21	KINOMEscan		1 µM	baseline: DMSO control	remaining binding	100%
Nc1ncc(-c2cc(-c3cnn(CC(F)(F)F)c3)ncc2F)nc1C(=O)NC1CNCC(F)C1 (stereo not shown)	enzyme activity		1 µM	baseline: DMSO control	remaining activity	94.8%
COc1c(Cl)cccc1Nc1c(-c2ccncc2C#C[C@@]2(C)CCCN2C(=O)/C=C/CN(C)C)[nH]c2c1C(=O)NCC2	cell-free assay, competition with immobilised ligand		3 µM		remaining binding	98%
COc1cc(Nc2nc(C)cc(-c3cnn4nc(OC)ccc34)n2)cc(C(F)(F)F)c1	binding, competition with immobilised ligand		1 µM		remaining binding	100%
Cc1ccc(C(=O)Nc2ccc(CN3CCN(C)CC3)c(C(F)(F)F)c2)cc1C#Cc1cnc2cccnn12	target engagement, NanoBRET	human cells			upper asymptote	19.9
CCN1CCN(Cc2ccc(C(=O)Nc3ccc(C)c(NCc4cnc5[nH]ccc5c4OC)c3)cc2C(F)(F)F)CC1	binding, competition with immobilised ligand		1 µM		remaining binding	94%
NC(=O)C[C@H]1CCc2sc3ncnc(O[C@H]4CC[C@H](N5CCOCC5)CC4)c3c21	enzyme activity, inhibitor		10 µM		inhibition	-8%
C=CC(=O)N1Cc2nc(-c3cc(-c4cc(Cl)cnc4Cl)c(F)cc3F)n(-c3ccncn3)c2C1	cell-free assay		1 µM		inhibition	9.4%
C=CC(=O)N1CCCC(n2c(=O)c3ncccc3n(Cc3ccc(Oc4ccccc4)cc3)c2=O)C1 (stereo not shown)	cell-free assay, competition with immobilised ligand		1 µM		remaining binding	97%

A few entries again:
SMILES	assay	system	conditions	scale	endpoint	value
Cc1ccc(C(=O)Nc2ccc(CN3CCN(C)CC3)c(C(F)(F)F)c2)cc1C#Cc1cnc2cccnn12	target engagement, NanoBRET	human cells			upper asymptote	19.9
CCN1CCN(Cc2ccc(C(=O)Nc3ccc(C)c(NCc4cnc5[nH]ccc5c4OC)c3)cc2C(F)(F)F)CC1	binding, competition with immobilised ligand		1 µM		remaining binding	94%
